{"data": "Published values collected from several papers", "note": "A part holds a random share of what one study measured. Positions count from the first letter of the parent shown."}
{"data": "Study 1", "target": "CCNB3, cyclin fold, Cln2 fusion (human)", "method": "yeast growth competition, sequencing", "matrix": "yeast", "setting": "strong parent motif", "relative to": "not given", "direction": "higher = stronger binding", "starting sequence": "E2F1 docking peptide (human); PPVKRRLDFETDH; partner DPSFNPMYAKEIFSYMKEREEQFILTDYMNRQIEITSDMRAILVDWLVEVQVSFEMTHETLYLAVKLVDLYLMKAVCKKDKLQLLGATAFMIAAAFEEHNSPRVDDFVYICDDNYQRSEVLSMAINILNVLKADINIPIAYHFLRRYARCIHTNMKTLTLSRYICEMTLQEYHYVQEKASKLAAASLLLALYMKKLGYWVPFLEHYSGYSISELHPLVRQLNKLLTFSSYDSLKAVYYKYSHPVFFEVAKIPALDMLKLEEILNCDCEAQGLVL"}
{"Substitution": "PIVKRRLDFETDH [P2I]", "normalised enrichment score": 1.36}
{"Substitution": "PPVKRRLDDETDH [F9D]", "normalised enrichment score": -0.107}
{"Substitution": "PPVKRRLDFDTDH [E10D]", "normalised enrichment score": 3.32}
{"Substitution": "PPVKRRRDFETDH [L7R]", "normalised enrichment score": -0.0832}
{"Substitution": "PPLKRRLDFETDH [V3L]", "normalised enrichment score": 1}
{"Substitution": "PSVKRRLDFETDH [P2S]", "normalised enrichment score": 2.48}
{"Substitution": "PPVKRRLMFETDH [D8M]", "normalised enrichment score": 2.12}
{"Substitution": "PPVKRRKDFETDH [L7K]", "normalised enrichment score": -0.259}
{"Substitution": "PPVKCRLDFETDH [R5C]", "normalised enrichment score": 0.615}
{"Substitution": "PDVKRRLDFETDH [P2D]", "normalised enrichment score": 1.56}
{"Substitution": "PPVKRRLDFETWH [D12W]", "normalised enrichment score": 2.74}
{"Substitution": "PPVKRRLDFEKDH [T11K]", "normalised enrichment score": 2.2}
{"data": "Study 2", "target": "Ras GTPase-activating protein-binding protein 1, full length (G3BP1, Homo sapiens, UniProt Q13283)", "method": "RNA Bind-n-Seq", "molecule type": "RNA", "matrix": "in vitro", "tested at": "200 nM", "setting": "whole 134-nt RNA, ends assumed", "added": "150 mM LiCl", "relative to": "input library", "direction": "higher = stronger binding", "all molecules": "7-deaza-guanosine replaces G", "shared flanks, not repeated": "GGGAGUUCUACAGUCCGACGAUC … UGGAAUUCUCGGGUGUCAAGG", "sequence of UniProt Q13283 (whole entry, looked up)": "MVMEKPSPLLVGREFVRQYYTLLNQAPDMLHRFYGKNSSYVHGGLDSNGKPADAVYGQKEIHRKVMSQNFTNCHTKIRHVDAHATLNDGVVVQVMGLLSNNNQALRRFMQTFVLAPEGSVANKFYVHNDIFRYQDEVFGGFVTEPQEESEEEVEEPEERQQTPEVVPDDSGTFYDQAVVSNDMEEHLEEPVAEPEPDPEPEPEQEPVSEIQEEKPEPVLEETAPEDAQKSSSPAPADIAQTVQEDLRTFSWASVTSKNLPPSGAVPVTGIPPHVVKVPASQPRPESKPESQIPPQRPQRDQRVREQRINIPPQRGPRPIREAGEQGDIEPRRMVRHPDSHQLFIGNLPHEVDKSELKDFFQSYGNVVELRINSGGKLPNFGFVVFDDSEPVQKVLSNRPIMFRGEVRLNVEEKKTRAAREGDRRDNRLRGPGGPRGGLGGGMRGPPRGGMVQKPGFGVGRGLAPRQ"}
{"Strand": "CCUCAAGUCCUGUGCUACACAUCGUAUGUACCGAAUCGGAAAGGAAAGGAGGAAAGUAUUAUGUUACGCCGUUCGGAUCUGCACUUCCAG", "log2 enrichment": -0.219}
{"Strand": "CCUGUGCUACACAUCGUAUGUACCGAAUCAAACCCCCAAACCCCCCCAAACCCCCCCAAAAAAGUAUUAUGUUACGCCGUUCGGAUCUGC", "log2 enrichment": 0.0444}
{"Strand": "UUCCUCAAGUCCUGUGCUACACAUCGUAUGUACCGAAUCGGUGGGUGGUGGAAAGUAUUAUGUUACGCCGUUCGGAUCUGCACUUCCAGC", "log2 enrichment": 0.507}
{"Strand": "CUCAGCAGACCCUGAAGGACACUUUGAGACACCAAUCUGGAUUGAGCGGGUGGUGAUAAUAGGGGCUGGAAAGCCAGCAGCUGUGGUACU", "log2 enrichment": -0.778}
{"Strand": "CCUCAAGUCCUGUGCUACACAUCGUAUGUACCGAAUCGGAGGGGAGGGGAGGGAAAGUAUUAUGUUACGCCGUUCGGAUCUGCACUUCCA", "log2 enrichment": 0.405}
{"Strand": "CUCAAGUCCUGUGCUACACAUCGUAUGUACCGAAUCGGAAGGGAAGGGGAAGGGAAAGUAUUAUGUUACGCCGUUCGGAUCUGCACUUCC", "log2 enrichment": 0.0345}
{"Strand": "GUCCUGUGCUACACAUCGUAUGUACCGAAUCGGGGAGGGGAAAAAGGGGAAAAAGGGGAAAGUAUUAUGUUACGCCGUUCGGAUCUGCAC", "log2 enrichment": 0.543}
{"Strand": "CCUGUGCUACACAUCGUAUGUACCGAAUCGGGUUUUUUUGGGAAAAAAAGGGUUUUUGGGAAAGUAUUAUGUUACGCCGUUCGGAUCUGC", "log2 enrichment": -2.67}
{"Strand": "CACAGACAACACGCACCCACACAGACACAGAGGGAAGGGGUUGGGAUGGGGACAGGGUGCACAGCAGGAAAGGGUAGGACCCCAGCCCCU", "log2 enrichment": 0.209}
{"Strand": "CUGUGCUACACAUCGUAUGUACCGAAUCGGGUUUUUUUGGGGUUUUUUUGGUUUUUUUGGGAAAGUAUUAUGUUACGCCGUUCGGAUCUG", "log2 enrichment": 1.22}
{"Strand": "GGGUCUGUUGCAAAUAAAUUCUAUGUUCACAAUGAUAUCUUCAGAUACCAAGAUGAGGUCUUUGGUGGGUUUGUCACUGAGCCUCAGGAG", "log2 enrichment": -0.518}
{"data": "Study 3", "target": "Sal-like protein 4, full length isoform B (SALL4, Homo sapiens, UniProt Q9UJQ4-2, residues 1-616)", "method": "universal PBM", "molecule type": "double-stranded DNA, one strand shown", "matrix": "in vitro", "tested at": "not given", "setting": "8-mer, flanks averaged, mean of replicates", "direction": "higher = stronger binding", "Residues (chain)": "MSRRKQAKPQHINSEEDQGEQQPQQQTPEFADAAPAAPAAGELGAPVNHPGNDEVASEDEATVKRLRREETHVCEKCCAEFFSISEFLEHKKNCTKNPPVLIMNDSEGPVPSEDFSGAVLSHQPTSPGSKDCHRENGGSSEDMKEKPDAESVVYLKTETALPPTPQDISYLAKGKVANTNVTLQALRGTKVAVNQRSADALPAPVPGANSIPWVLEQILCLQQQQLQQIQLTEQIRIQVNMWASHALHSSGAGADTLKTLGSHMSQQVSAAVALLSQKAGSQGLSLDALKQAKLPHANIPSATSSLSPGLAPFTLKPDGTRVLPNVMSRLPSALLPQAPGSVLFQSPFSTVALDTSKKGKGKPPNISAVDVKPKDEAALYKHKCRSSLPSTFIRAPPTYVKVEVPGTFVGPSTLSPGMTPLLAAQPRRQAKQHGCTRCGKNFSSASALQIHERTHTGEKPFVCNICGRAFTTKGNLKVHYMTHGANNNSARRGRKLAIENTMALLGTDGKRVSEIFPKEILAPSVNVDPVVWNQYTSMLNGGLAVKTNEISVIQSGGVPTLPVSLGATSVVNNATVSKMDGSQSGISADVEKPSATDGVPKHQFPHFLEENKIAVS"}
{"Strand": "ACGAGTCC", "E-score": -0.141}
{"Strand": "GAAGGCGA", "E-score": -0.234}
{"Strand": "TGGCGCAA", "E-score": -0.0587}
{"Strand": "CGTTACGA", "E-score": -0.0302}
{"Strand": "CAGCGTGC", "E-score": -0.291}
{"Strand": "ATTATCAG", "E-score": 0.231}
{"Strand": "GCACAGGC", "E-score": -0.146}
{"Strand": "GCGAATCC", "E-score": -0.151}
{"Strand": "GCCCGTCA", "E-score": -0.236}
{"Strand": "ATTTAAGA", "E-score": 0.136}
{"Strand": "AAACCCAC", "E-score": -0.036}
{"Strand": "GCAATCAA", "E-score": 0.0502}
{"Strand": "CCCCGAAC", "E-score": -0.228}
{"Strand": "CTGTAACA", "E-score": 0.089}
{"Strand": "AAACAATT", "E-score": 0.265}
{"Strand": "CTGCTTAC", "E-score": -0.0376}
{"Strand": "AGTGCCGA", "E-score": -0.173}
{"Strand": "AGCGGGCG", "E-score": -0.359}
{"Strand": "ACCAGCCT", "E-score": -0.18}
{"data": "Mixed results"}
{"Substance": "PhoQ, residues 284 288 289 292 302 303 TSTLRA", "target": "PhoP, residues 12 14 15 18 19 VHTVL (Escherichia coli, UniProt P23836)", "assay": "Sort-seq, measured: YFP reporter", "test system": "E. coli", "conditions": "PhoQ-PhoP variant library, added: 10 µM Mg2+", "how to read": "relative to: high Mg2+ state, higher = stronger signaling", "measurement": "fold induction", "value": 4.3}
{"note": "Excerpt of the above (study 2):"}
{"Strand": "GUCCUGUGCUACACAUCGUAUGUACCGAAUCGGGGAGGGGAAAAAGGGGAAAAAGGGGAAAGUAUUAUGUUACGCCGUUCGGAUCUGCAC", "log2 enrichment": 0.543}
{"Strand": "CUCAAGUCCUGUGCUACACAUCGUAUGUACCGAAUCGGAAGGGAAGGGGAAGGGAAAGUAUUAUGUUACGCCGUUCGGAUCUGCACUUCC", "log2 enrichment": 0.0345}
{"Strand": "CCUCAAGUCCUGUGCUACACAUCGUAUGUACCGAAUCGGAGGGGAGGGGAGGGAAAGUAUUAUGUUACGCCGUUCGGAUCUGCACUUCCA", "log2 enrichment": 0.405}
{"Strand": "CUGUGCUACACAUCGUAUGUACCGAAUCGGGUUUUUUUGGGGUUUUUUUGGUUUUUUUGGGAAAGUAUUAUGUUACGCCGUUCGGAUCUG", "log2 enrichment": 1.22}
{"Strand": "CUCAGCAGACCCUGAAGGACACUUUGAGACACCAAUCUGGAUUGAGCGGGUGGUGAUAAUAGGGGCUGGAAAGCCAGCAGCUGUGGUACU", "log2 enrichment": -0.778}
{"Strand": "CACAGACAACACGCACCCACACAGACACAGAGGGAAGGGGUUGGGAUGGGGACAGGGUGCACAGCAGGAAAGGGUAGGACCCCAGCCCCU", "log2 enrichment": 0.209}
{"Strand": "GGGUCUGUUGCAAAUAAAUUCUAUGUUCACAAUGAUAUCUUCAGAUACCAAGAUGAGGUCUUUGGUGGGUUUGUCACUGAGCCUCAGGAG", "log2 enrichment": -0.518}
